Experimental data from different studies.
Lines come from different studies, so protocols differ. ± gives the spread as reported.

The half-life of `CN1CCCC1CCNS(=O)(=O)c1ccc2c(c1)CN(CC1CCCCC1)CC2` (stereo not drawn) is reported as 5 h (mouse, plasma; oral, 10 mg/kg).
`CC[C@H](C)[C@H](NC(=O)[C@H](CCC(=O)O)NC(=O)[C@H](CO)NC(=O)[C@@H](NC(=O)[C@@H](N)CO)C(C)C)C(=O)N[C@@H](CCC(N)=O)C(=O)N[C@@H](CC(C)C)C(=O)N[C@@H](CCSC)C(=O)N[C@@H](Cc1cnc[nH]1)C(=O)N[C@@H](CC(N)=O)C(=O)N[C@@H](CC(C)C)C(=O)NCC(=O)N[C@@H](CCCCN)C(=O)N[C@@H](Cc1cnc[nH]1)C(=O)N[C@@H](CC(C)C)C(=O)N[C@@H](CC(N)=O)C(=O)N[C@@H](CO)C(=O)N[C@@H](CCSC)C(=O)N[C@@H](CCC(=O)O)C(=O)N[C@@H](CCCNC(=N)N)C(=O)N[C@H](C(=O)N[C@@H](CCC(=O)O)C(=O)N[C@@H](Cc1c[nH]c2ccccc12)C(=O)N[C@@H](CC(C)C)C(=O)N[C@@H](CCCNC(=N)N)C(=O)N[C@@H](CCCCN)C(=O)N[C@@H](CCCCN)C(=O)N[C@@H](CC(C)C)C(=O)N[C@@H](CCC(N)=O)C(=O)N[C@@H](CC(=O)O)C(=O)N[C@H](C(=O)N[C@@H](Cc1cnc[nH]1)C(=O)N[C@@H](CC(N)=O)C(=O)N[C@@H](Cc1ccccc1)C(N)=O)C(C)C)C(C)C` has a half-life of 0.14 h (ELISA; CD-1 mouse, female, serum; intravenous, 10 nmol/kg).
`CCC/C(=C\C1=C(OC)C(=O)c2ccccc2C1=O)C(=O)N(CC)CC` gave a half-life of 1.57 h (mouse, female, eye; intravitreal, 10 µM).
`O=c1c2cc(Cl)c(CO)cc2[nH]c(=S)n1Cc1cccnc1` has a half-life of 0.75 h (mouse, plasma; intravenous).
For `COc1ccc2nc(-c3ccccn3)c(N(C)c3ccc(F)cc3)n2c1`, the half-life was 1.61 h (CD1 mouse, male, fasted, plasma; oral, 50 mg/kg, added: ABT 50 mg/kg).
The half-life of `N#Cc1ccc2c(-c3ccncc3)c(-c3ccc(F)cc3)nn2c1` is reported as 3.45 h (CD1 mouse, female; intravenous, 5 mg/kg).
The half-life of `N[C@@H](C[18F])C(=O)O` is reported as 0.0132 h (PET; athymic nude mouse, blood; intravenous).
For `Cc1ccc2c(-c3ccncc3)c(-c3ccc(F)cc3)nn2c1`, the half-life was 2.33 h (CD1 mouse female; oral, 25 mg/kg).
The half-life of `COc1cc(C)[nH]c(=O)c1CN1CCc2c(Cl)cc([C@H](OC)C3COC3)c(Cl)c2C1=O` is reported as 1.01 h (female CB17 SCID mouse, HT-1376 xenograft, plasma; 75 mg/kg, day 1).
`O=C(O)C[C@H](O)C[C@H](O)/C=C/c1c(C2CC2)nc2ccccc2c1-c1ccc(F)cc1` gave a half-life of 3 h (FVB wild-type mouse, plasma; oral, 5 mg/kg, added: silymarin 500 mg/kg oral).
For `CCOC(=O)C1=C(CN2CCC[C@@H]2C(=O)Nc2ccc(B(O)O)cc2)NC(c2nccs2)=N[C@H]1c1ccc(F)cc1Br`, the half-life was 1.95 ± 0.16 h (ICR mouse, plasma; intravenous, 2 mg/kg).
`CCN(CC)CCOC(=O)c1ccc(N)cc1` has a half-life of 0.0702 h (LC-MS; BALB/c nude mouse, plasma; 2 µM).

Excerpt of the above:
`CC[C@H](C)[C@H](NC(=O)[C@H](CCC(=O)O)NC(=O)[C@H](CO)NC(=O)[C@@H](NC(=O)[C@@H](N)CO)C(C)C)C(=O)N[C@@H](CCC(N)=O)C(=O)N[C@@H](CC(C)C)C(=O)N[C@@H](CCSC)C(=O)N[C@@H](Cc1cnc[nH]1)C(=O)N[C@@H](CC(N)=O)C(=O)N[C@@H](CC(C)C)C(=O)NCC(=O)N[C@@H](CCCCN)C(=O)N[C@@H](Cc1cnc[nH]1)C(=O)N[C@@H](CC(C)C)C(=O)N[C@@H](CC(N)=O)C(=O)N[C@@H](CO)C(=O)N[C@@H](CCSC)C(=O)N[C@@H](CCC(=O)O)C(=O)N[C@@H](CCCNC(=N)N)C(=O)N[C@H](C(=O)N[C@@H](CCC(=O)O)C(=O)N[C@@H](Cc1c[nH]c2ccccc12)C(=O)N[C@@H](CC(C)C)C(=O)N[C@@H](CCCNC(=N)N)C(=O)N[C@@H](CCCCN)C(=O)N[C@@H](CCCCN)C(=O)N[C@@H](CC(C)C)C(=O)N[C@@H](CCC(N)=O)C(=O)N[C@@H](CC(=O)O)C(=O)N[C@H](C(=O)N[C@@H](Cc1cnc[nH]1)C(=O)N[C@@H](CC(N)=O)C(=O)N[C@@H](Cc1ccccc1)C(N)=O)C(C)C)C(C)C` has a half-life of 0.14 h (ELISA; CD-1 mouse, female, serum; intravenous, 10 nmol/kg).
`CCC/C(=C\C1=C(OC)C(=O)c2ccccc2C1=O)C(=O)N(CC)CC` gave a half-life of 1.57 h (mouse, female, eye; intravitreal, 10 µM).
